# Experimental data from different studies.
# A part holds a random share of what one study measured.

# Series 1
# Target: Sal-like protein 4, full length isoform A (SALL4, Homo sapiens, UniProt Q9UJQ4, residues 1-1053)
# UniProt Q9UJQ4, sequence (whole entry, looked up): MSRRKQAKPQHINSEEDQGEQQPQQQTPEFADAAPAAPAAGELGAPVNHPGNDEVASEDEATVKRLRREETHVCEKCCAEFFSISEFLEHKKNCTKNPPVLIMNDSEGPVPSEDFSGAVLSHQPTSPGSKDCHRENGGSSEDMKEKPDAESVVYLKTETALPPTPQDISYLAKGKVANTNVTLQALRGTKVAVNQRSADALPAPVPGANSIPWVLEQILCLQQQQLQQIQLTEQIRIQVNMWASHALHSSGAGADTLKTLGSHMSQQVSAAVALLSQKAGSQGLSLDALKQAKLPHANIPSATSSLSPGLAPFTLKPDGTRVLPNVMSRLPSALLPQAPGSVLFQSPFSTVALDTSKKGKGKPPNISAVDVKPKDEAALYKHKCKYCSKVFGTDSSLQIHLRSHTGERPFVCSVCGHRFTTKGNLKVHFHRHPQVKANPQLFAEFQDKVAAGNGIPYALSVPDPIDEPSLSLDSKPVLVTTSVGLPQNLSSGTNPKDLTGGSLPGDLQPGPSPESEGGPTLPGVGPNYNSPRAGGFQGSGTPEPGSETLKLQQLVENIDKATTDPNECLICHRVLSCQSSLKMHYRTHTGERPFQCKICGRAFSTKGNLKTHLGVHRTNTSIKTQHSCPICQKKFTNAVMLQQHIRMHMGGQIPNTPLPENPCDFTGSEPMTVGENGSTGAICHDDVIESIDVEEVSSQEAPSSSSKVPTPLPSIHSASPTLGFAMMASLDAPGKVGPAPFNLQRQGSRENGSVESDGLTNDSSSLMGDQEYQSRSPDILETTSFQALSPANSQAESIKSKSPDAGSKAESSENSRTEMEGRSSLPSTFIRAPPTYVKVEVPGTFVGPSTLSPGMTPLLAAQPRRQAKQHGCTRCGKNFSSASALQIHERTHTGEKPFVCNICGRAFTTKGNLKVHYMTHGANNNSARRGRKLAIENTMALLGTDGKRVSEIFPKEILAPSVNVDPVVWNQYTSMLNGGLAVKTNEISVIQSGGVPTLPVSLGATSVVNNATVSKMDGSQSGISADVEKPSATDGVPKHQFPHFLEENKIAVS
# Method: universal PBM
# Molecule type: double-stranded DNA, one strand shown
# Matrix: in vitro
# Tested at: 600 nM
# Setting: 8-mer, flanks averaged, mean of replicates
# Direction: higher = stronger binding
Strand,E-score
ACCCCTCC,-0.304
AGATTTCC,-0.101
GTAATGTA,0.229
TGCCGCCA,-0.125
CGCACGCG,-0.266
GTATACGA,0.00719
AGCTAAAC,-0.0317
AGGCCTCC,-0.104
ACACCTTG,-0.00258
AAATCGAT,0.193
GAGGTTGA,0.061
CGCGTACA,-0.0654
GCCCTCAC,-0.216
GGGTATGA,0.0346
ATGATCAT,0.235
CTGAACAG,-0.0846
ATCATGCG,-0.00113
AAGCATGT,0.173
GATTTTAC,0.193
AAGTGGAA,0.18
TGCGAGCA,-0.0566
CACACGTA,-0.0813
CGATCGAG,-0.161
AGGTGGAC,-0.221
GATCGGCA,-0.0914

# Series 2
# Target: RNA binding protein fox-1 homolog 2, RRM domain, GST-SBP tag (RBFOX2, Homo sapiens, UniProt O43251-10, residues 100-194)
# Method: RNA Bind-n-Seq
# Molecule type: RNA
# Matrix: in vitro
# Tested at: 365 nM
# Setting: natural RNA segment, single round, ends assumed
# Relative to: no-protein control
# Direction: higher = stronger binding
# All sequences stand within: GGGAGUUCUACAGUCCGACGAUC … UGGAAUUCUCGGGUGCCAA
# Residues (chain): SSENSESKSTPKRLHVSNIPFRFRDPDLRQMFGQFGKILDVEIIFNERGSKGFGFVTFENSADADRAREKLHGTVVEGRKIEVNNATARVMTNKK
Strand,RBNS enrichment (R)
CGCAUUUAAAAUGUAUUCUUAAUGUGCUGUAGUGUGUGUGAGCCGGUGUCCAGAGGUGUGAAAUAUACCAUGUAAUCUCACACAGGUGGACUGUGGAACCGUUUUUAUGG,0.832
AGUCAAUAUAUAGUGUUGAAGUGGUAUUUCAGGCUAGGAAUUAUUCCCUUCUCUUGGAAUGUGAAGAUCUGUCGAUUCAUCCUGUCAUUAAUCCUGACAUACAGAACAAA,0.247
CUUGGAAAGCUAGGAAGGCUGCAUUGUGUGGUGGCAGGCUCCCGAGACUCGUGUUCUGAAGGAUACUCUCCUCCAUCACCCCUGCACCUUCCUCCGACCUGUGUAGGGUG,0.966
UGCUCUGACUGGCUCCCCUUCCAGACUGCCUUUUCUGGCCUUUCUGGGGUUCCCUGUUGGUGCCACAGGGCACUUCCUUAAAACCAGUACUGUACCAGAAAACUGAGGGU,0.312
UGUGGAGGAGUGGUCCCAGUGACAUCCAGGCACCAUUCAGCACAACACUGGGAAGUGAUUCUUCCCUCAGGCCCCUCUGCCUACCAACACCUGGGCUCCUCACUGGGGGA,0.552
GGCCCGGGCGUGCACUAGGCGGGGCAAGAGGAAGCACGUCCCCAAGUUGAUUGUAGUUGUCCCGUCCUGUGGGCUGGCUCACUGUCCUGUGUCCUUUGCGUUCCUCGUUU,0.948
GAACUGCCAAGAAAAGGCAUGGAGACAGCGAACUAGAAGAAAGGGCAAGAAGGAAAUAGCCACCGUCUACAGAUGGCUUAGUUAAGUCAUCCACAGCCCAAGGGCGGGGC,0.587
CUUACUUGGCCAUGGGGUUGCUUGUUUAAAUAUUAAACUUACCCUUGUGACCUCUGUCCACAGUCAUUUGAAGGAAGGAUUUCCUUUGGUUUUAGCUAUGCUUAUGAAAU,0.615
CCAGCUGUUAGAGGACAGAGCCAGCUCAGUAGGACCUCCUGCUCCUCCCCCCGGCUUCGUGCCCUUUGGAUGACACAAAAACUUCAUACACCAGUGACUGUCGGGCAGGG,0.377
CUAAUUCUAUCACGAAUGUUCUUGUCUGUGUACAGUUUUUAGAACAUUACAAAGGAUUUGUUUGCUUAGCUGUCAACAAAAAGAAAACCUGAGGGAGCAUUCAGCAAGUC,0.332
AACAGAAGGUCCUGUUGGGUUUGUUGUUUUUGAGGCUGCCGAAUGGUUUUGGAAUGCAGGGUCAGCCUUGGAGUAUCUCUGAGCAUUGUGGCCUCAGCCAGGAGCGCACU,3.73
ACUCCCAUAUAAGCAUUCAAUCAGUGUAACUUGCAAAAUGCAUAAACAUCCGACAGUUUGAAUUUAUAGUGUUGAUGGAAGAAAUCAUUUUUAAUGUGUACUGUAAAACU,0.671

# Series 3
# Target: Hepatocyte nuclear factor 3-alpha (Foxa1, Mus musculus, UniProt P35582, residues 1-468, full length assumed)
# UniProt P35582, sequence (whole entry, looked up): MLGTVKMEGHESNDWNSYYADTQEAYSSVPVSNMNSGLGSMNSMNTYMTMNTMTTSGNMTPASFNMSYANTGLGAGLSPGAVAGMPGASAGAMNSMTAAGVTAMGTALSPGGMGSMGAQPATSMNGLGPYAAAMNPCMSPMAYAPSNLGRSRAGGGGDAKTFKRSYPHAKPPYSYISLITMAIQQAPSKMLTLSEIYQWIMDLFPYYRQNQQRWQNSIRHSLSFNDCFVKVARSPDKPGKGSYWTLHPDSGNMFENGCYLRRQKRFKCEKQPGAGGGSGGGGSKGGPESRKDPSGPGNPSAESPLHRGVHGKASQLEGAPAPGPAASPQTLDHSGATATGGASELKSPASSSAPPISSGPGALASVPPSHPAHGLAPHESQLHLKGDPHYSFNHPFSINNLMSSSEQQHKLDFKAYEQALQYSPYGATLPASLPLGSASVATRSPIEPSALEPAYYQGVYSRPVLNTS
# Method: EMSA with sequencing
# Molecule type: double-stranded DNA, one strand shown
# Matrix: in vitro
# Tested at: 10 and 20 nM
# Setting: whole designed probe, mean of two concentrations, ends assumed
# Relative to: negative control set to 0
# Direction: higher = stronger binding
# All sequences stand within: GTGAGCGGTGCCCATTGATGGGGAAC … TTTCACTGGGATCGTGGGGAC
Strand,normalised bound fraction
TGTGTGTGCGCGCGCGTGTGTGTGTGTTTTCTTAAGCCGGGCTATTCAAACCCTGCTGCAATTCTCCGGTAAACAATGATTCATGGGGCATAATGCAATTTAACGGATTGCAAACGGCGCGGTTCGCGCACTTTGCAGCCGGCCCGGTGGAGCAGCCAGTGCCGGATTTCTCCCTTTTTTTGCAGATCTGCAG,0.131 ratio
GGGCCCAGCTGGAGCCTGAAGATACTGGGCTCCACCCAACATGTTGGGTGAGGGAAACTGGGCCATATTAGGAATTGCACAAAGATCTCAATGTAAACAGGAGCTGAACTGCAACCTGGGCATAAAGGAGAAACTGGATGTTTGGGTCCATAAGGCAGAGAAATGTTTGAGAACTTGTCTCAAAATTCTTCTG,0.259 ratio
TTTCCAGCCCTTAGTTTCTGGCATTTAACCTGACTCTGGTCCCTGAATGGCATGGGAGTGCTTTCAACCACAGGTTTCCTGACTCATTCCACTTGTTTGCTTTTCTGTCACATTCTGATCTACAGAGATCTTTATTTGCTTTGTGTTTCCAATGGAGAAAGAGCTTGGGAAGGGAGGATCCTAATTGTCTAAA,0.493 ratio
TGAAAGACTAGAGGACATATAATAGAGGCACATGTAAAAATTATAGATAATAGTGTCAACTTTCATAACTTAAAGTGAAAAATTTCTTTTACCATGTTTACTTTGCAGGCAGAAAAATAACATTAGTAAGGAATAATTGCTATTTCTTTTTGGTTATTTTTCTCTCATTCATATTAACTTTTCCTAAATTTCA,0.375 ratio
ATCTTCCCCCTCTTCCTTGCCCCACCAGCTCACATGGACTTCTTGCGCCGTTATAGGAAAATAAATAAAGCCGGCATTCGTTAACCCTCTTCTGGCGCAAACTGCTGTTTGCTCTGGATGAATCATGGTCCTTTGGCGACGCCAGGCTCCGGGAGAGCAAAGCACCGTGTCAGGGCCATGATCCGGGGTGGCC,0.323 ratio
TTATGATCTGAGTATATATAGTAAGTACCTCCCCTTTCAGGGTAAGGCAGTAGGTAATGGTGACAGGGAAGCAAAAAGGTGACTCAGGTTGAGTAAACAACACCAAGCATATCTGACTCAAGGAATGCTTCAGAGGCCAGGGGTGCATGCCTGTAATCCCAGCACCTTGGAAGGCTGACACAGGAGGATCACT,0.421 ratio
ACATCCTTACTTTCTTCCTGCCTGAAACCCAGGTGAAATTTACTGGAGCCCAGTAAATTCTAGCACTGTCTAACAAACTTAATTTAGGTCCCTGTTTACTTTTTAGCTAAACACTAATTAAACTACACTAATTAATGATGATGCATGTAAAAAATTAGTTTTTTTTTCTTAACGGGAAATGTGAACACTGAAA,0.254 ratio
ATCTTCCCCCTCTTCCTTGCCCCACCAGCTCACCTACGGGGGTTATTTGCAGATAGGAAAATAAATAAAGCCGGCATTCGTTAACCCTCTTCTGGCGCAAACTGCTGTTTGCTCTGGATGAATCATGGTCCTTTGGCGACGCCAGGCTCCGGGAGAGCAAAGCACCGTGTCAGGGCCATGATCCGGGGTGGCC,0.341 ratio

# Series 4
# Target: Interferon regulatory factor 3, full length, phosphomimetic (IRF3, Homo sapiens, UniProt Q14653, residues 1-427, S386D/S396D/S398D/S402D/T404D/S405D)
# UniProt Q14653, sequence (whole entry, unmodified, looked up): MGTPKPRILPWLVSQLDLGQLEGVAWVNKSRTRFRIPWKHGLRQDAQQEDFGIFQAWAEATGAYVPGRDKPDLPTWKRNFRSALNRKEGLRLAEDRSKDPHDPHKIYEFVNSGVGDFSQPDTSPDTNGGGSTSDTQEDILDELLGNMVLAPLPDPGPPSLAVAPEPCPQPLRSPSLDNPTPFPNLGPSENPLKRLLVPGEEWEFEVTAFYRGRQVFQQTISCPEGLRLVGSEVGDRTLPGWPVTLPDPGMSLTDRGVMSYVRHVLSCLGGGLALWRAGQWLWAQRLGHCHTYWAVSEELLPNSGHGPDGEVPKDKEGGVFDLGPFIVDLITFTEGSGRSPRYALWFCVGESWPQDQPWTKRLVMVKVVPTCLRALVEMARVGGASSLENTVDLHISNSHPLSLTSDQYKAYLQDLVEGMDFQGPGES
# Method: protein-binding microarray
# Molecule type: double-stranded DNA, one strand shown
# Matrix: in vitro
# Tested at: 2540 nM top
# Setting: 60-bp whole probe
# With: salmon DNA 0.4 mg/ml
# Relative to: random background probes
# Direction: higher = stronger binding
# All sequences stand within: GCCTAGCAC … GTCTTGATTCGCTTGACGCTGCTG
Strand,fitted relative affinity [z-score]
TTCTCAACCAGTTTTCTTTTCGTGCTA,3.24
CTAATTTTGAGACTCATGGGGTGCTAG,0.375
GACGGTATCGGGTATCGGGAGGTGCTA,1.72
GACGAAATGGGGTATCGAGACGTGCTA,-0.231
TCAACTTTCCAAAACATACTGTGCTAG,2.91
GACGATTTCGAGACTGGAGACGTGCTA,1.42
TTGAGTTTTCCTTCATGTGCGTGCTAG,2.23
TTAGGTTTCGGGTATCGATTAGTGCTA,4.54
TGAGATATCGGGACTGGATTAGTGCTA,-0.4
TTAGGTCTCCCTATCCTTTAGTGCTAG,2.18
GACGAACGGAGACTGGAGACGTGCTAG,-0.241
GCCGATATCAGTATCGAGACGTGCTAG,1.81
TCATTTTTCTCACCACATACTGTGCTA,1.89
CTCTTTTTGCTTTCTTTTATGTGCTAG,2.63
GCCGAACTGAGTCTCGAGACGTGCTAG,0.967
CACGATATCGGGTATCGAGACGTGCTA,0.206
GGCGATTTCAGTTCCGAGACGTGCTAG,2.95
GACAGTTTCGGGTATCGGGACGTGCTA,4.65
TTAGGACTGGGGTATCGGTGAGTGCTA,-0.574
GACGGTTTCGGGTATCGGGCCGTGCTA,4.14
TAAGGACTGCTTATCCTTTAGTGCTAG,0.04
CAGGTTCTCTTTTATTTTTTGTGCTAG,2.78
TCATACATGTGTTTAAAACTGTGCTAG,0.178
TTAGGTCTCGGTTTCGGTTGGTGCTAG,4.28
GACGGTTTCGGTTTCGGGTCGTGCTAG,11.2

# A few entries again (series 2):
Strand,RBNS enrichment (R)
CGCAUUUAAAAUGUAUUCUUAAUGUGCUGUAGUGUGUGUGAGCCGGUGUCCAGAGGUGUGAAAUAUACCAUGUAAUCUCACACAGGUGGACUGUGGAACCGUUUUUAUGG,0.832
AGUCAAUAUAUAGUGUUGAAGUGGUAUUUCAGGCUAGGAAUUAUUCCCUUCUCUUGGAAUGUGAAGAUCUGUCGAUUCAUCCUGUCAUUAAUCCUGACAUACAGAACAAA,0.247
CUUGGAAAGCUAGGAAGGCUGCAUUGUGUGGUGGCAGGCUCCCGAGACUCGUGUUCUGAAGGAUACUCUCCUCCAUCACCCCUGCACCUUCCUCCGACCUGUGUAGGGUG,0.966
UGCUCUGACUGGCUCCCCUUCCAGACUGCCUUUUCUGGCCUUUCUGGGGUUCCCUGUUGGUGCCACAGGGCACUUCCUUAAAACCAGUACUGUACCAGAAAACUGAGGGU,0.312
